Experimental data gathered from unrelated publications.
Parts stem from different laboratories: compare values within a part only.
Sequence of UniProt O75676 (whole entry, looked up): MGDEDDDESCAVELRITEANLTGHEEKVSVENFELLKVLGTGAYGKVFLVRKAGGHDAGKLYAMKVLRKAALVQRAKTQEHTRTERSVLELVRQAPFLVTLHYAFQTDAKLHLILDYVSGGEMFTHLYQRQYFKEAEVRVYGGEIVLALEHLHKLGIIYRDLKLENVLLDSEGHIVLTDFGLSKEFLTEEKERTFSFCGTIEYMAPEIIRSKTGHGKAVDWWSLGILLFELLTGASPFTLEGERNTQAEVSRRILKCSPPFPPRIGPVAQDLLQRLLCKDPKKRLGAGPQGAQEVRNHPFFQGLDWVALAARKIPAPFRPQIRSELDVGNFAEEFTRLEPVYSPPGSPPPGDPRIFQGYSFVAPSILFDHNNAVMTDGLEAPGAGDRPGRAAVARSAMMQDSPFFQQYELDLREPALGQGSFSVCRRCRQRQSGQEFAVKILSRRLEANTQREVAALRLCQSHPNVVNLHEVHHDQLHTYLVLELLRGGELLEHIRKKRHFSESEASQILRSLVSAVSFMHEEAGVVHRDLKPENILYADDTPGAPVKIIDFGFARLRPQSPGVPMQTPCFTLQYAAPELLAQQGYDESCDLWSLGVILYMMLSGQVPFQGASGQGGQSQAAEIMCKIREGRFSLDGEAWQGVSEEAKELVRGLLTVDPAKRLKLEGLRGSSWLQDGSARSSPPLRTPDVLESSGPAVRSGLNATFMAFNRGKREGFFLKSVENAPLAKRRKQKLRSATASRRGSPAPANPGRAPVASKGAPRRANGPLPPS
Sequence of UniProt Q9HAZ1 (whole entry, looked up): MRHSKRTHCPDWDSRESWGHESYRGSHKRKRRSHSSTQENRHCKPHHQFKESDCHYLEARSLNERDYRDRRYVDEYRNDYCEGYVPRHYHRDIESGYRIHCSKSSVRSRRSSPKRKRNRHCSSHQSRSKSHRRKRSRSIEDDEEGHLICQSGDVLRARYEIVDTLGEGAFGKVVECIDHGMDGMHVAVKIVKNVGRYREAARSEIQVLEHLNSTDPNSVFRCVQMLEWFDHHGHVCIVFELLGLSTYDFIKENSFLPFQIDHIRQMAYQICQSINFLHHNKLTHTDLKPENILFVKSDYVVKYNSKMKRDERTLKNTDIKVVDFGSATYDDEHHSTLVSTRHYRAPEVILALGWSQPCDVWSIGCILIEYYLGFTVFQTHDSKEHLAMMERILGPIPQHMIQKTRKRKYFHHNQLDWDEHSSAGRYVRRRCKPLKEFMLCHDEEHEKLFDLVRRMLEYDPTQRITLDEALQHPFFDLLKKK
Sequence of UniProt O75914 (whole entry, looked up): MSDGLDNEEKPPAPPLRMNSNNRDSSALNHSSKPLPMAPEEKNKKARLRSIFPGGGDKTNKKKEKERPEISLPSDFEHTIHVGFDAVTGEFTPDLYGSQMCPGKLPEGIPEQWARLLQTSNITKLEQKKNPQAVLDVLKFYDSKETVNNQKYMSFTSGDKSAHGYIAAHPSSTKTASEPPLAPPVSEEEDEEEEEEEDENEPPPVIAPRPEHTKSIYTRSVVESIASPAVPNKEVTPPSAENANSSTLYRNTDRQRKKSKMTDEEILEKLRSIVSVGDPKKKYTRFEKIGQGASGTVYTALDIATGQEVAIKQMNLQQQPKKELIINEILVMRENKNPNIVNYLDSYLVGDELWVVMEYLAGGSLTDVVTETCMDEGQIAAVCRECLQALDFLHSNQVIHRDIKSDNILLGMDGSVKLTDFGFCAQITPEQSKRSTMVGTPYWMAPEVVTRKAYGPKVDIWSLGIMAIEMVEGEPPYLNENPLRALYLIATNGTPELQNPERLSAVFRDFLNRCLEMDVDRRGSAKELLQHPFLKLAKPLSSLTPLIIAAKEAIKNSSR
Sequence of UniProt Q13464 (whole entry, looked up): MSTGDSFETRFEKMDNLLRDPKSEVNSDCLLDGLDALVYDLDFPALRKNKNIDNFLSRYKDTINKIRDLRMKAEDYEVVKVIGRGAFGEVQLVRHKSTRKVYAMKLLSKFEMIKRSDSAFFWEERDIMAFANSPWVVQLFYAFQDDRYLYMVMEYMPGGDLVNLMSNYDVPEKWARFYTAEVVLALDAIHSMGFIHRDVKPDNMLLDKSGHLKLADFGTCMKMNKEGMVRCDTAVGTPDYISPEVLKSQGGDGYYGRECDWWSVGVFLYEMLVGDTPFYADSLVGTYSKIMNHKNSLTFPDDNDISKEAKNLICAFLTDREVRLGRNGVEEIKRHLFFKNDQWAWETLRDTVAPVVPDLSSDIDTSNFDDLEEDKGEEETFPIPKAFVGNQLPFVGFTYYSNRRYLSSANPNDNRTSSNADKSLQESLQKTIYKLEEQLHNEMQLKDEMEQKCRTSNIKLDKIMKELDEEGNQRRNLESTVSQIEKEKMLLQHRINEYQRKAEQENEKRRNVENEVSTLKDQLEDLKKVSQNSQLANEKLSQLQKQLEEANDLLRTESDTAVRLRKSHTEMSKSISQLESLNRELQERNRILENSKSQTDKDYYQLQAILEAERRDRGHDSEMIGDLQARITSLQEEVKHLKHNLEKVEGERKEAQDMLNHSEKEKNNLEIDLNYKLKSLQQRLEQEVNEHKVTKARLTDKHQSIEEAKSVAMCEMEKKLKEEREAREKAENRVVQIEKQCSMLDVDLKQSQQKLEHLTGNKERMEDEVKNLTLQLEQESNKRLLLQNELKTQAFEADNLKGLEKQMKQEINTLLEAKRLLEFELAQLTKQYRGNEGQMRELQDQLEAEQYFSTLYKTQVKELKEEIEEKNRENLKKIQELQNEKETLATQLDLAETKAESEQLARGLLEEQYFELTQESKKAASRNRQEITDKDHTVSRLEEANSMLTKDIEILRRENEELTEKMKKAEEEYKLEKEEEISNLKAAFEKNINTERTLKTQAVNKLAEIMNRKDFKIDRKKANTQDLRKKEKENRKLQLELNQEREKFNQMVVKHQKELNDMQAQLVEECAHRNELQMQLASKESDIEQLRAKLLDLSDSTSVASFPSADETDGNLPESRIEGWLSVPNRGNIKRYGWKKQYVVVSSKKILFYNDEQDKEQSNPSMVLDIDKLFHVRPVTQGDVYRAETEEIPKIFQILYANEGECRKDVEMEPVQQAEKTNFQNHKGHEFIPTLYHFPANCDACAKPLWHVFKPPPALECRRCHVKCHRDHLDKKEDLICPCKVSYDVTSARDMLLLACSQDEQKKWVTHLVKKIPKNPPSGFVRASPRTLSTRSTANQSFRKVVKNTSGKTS
Sequence of UniProt Q6P2M8 (whole entry, looked up): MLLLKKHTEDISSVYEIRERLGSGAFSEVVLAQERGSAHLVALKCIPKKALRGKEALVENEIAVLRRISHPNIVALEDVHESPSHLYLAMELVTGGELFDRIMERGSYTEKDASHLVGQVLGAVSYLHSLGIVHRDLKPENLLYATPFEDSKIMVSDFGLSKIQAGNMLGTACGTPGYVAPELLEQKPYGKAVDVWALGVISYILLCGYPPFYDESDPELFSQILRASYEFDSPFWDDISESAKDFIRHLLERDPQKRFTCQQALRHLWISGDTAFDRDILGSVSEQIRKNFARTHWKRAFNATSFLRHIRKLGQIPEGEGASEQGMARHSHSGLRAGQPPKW
Sequence of UniProt Q15759 (whole entry, looked up): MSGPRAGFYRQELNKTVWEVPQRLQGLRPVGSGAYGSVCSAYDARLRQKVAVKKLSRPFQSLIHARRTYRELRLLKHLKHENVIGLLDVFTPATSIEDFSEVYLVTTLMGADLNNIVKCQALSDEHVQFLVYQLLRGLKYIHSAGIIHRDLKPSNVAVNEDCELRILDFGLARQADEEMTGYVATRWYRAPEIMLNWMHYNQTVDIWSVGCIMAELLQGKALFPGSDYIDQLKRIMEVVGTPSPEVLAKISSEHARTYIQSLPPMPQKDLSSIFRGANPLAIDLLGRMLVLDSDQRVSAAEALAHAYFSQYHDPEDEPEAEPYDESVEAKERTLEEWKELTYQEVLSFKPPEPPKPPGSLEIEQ

Set 1
Target: Interferon regulatory factor 7, full length, phosphomimetic (IRF7, Homo sapiens, UniProt Q92985, residues 1-503, S471D/S472D/S475D/S476D/S477D/S483D/S484D/S487D)
Sequence of UniProt Q92985 (whole entry, unmodified, looked up): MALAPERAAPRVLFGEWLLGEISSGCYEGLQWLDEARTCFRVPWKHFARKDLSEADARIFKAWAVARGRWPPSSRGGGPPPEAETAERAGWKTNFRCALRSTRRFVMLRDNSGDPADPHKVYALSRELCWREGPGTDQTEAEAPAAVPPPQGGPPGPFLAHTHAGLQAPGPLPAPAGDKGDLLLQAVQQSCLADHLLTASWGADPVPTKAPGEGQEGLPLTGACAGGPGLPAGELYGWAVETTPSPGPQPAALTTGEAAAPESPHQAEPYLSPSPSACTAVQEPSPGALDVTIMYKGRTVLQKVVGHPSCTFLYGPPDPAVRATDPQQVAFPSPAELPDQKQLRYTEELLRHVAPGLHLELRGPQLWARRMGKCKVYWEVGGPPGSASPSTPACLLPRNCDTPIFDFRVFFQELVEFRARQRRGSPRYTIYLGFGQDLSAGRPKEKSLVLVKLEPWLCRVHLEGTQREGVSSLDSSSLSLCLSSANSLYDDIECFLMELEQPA
Method: protein-binding microarray
Molecule type: double-stranded DNA, one strand shown
Medium: in vitro
Tested at: 2200 nM top
Setting: 60-bp whole probe
Together with: salmon DNA 0.4 mg/ml
Relative to: random background probes
Reading: higher = stronger binding
Quantity: fitted relative affinity
All sequences stand within: GCCTAGCAC … GTCTTGATTCGCTTGACGCTGCTG
TCATAGATGCCTTTCTCACTGTGCTAG: 0.813 z-score
TTAGGTATCGACACTTGGTTAGTGCTA: 0.216 z-score
TTAGCACTGAGACTGGATTAGTGCTAG: -0.275 z-score
TTTGGTTTCGGTTTCGGTTAGTGCTAG: 18.4 z-score
GACGAAATCGGGTATCGAGACGTGCTA: 0.292 z-score
TTAGGTATCGGGTATCGGTGAGTGCTA: 0.255 z-score
TTAGATTCCAGGTTCGATTAGTGCTAG: 1.23 z-score
TTAGGTAGCCTTCTCCTTTAGTGCTAG: 0.35 z-score

Set 2
Structure (SMILES): COc1ccc(-c2cnc3c(-c4ccsc4)cnn3c2)cc1
Effect on: enzyme activity
Action: inhibitor
Tested at: 0.5 µM
Relative to: control
Quantity: remaining activity
MET (Homo sapiens, UniProt P08581): 86.3%
ROCK1 (Homo sapiens, UniProt Q13464): 95.7%
DCLK2 (Homo sapiens, UniProt Q8N568): 97.5%
CLK3 (Homo sapiens, UniProt P49761): 100%
Cyclin-dependent kinase 9, with cyclin K (CDK9, Homo sapiens, UniProt P50750): 76.9%
MAPK11 (Homo sapiens, UniProt Q15759): 84.1%
RPS6KA4 (Homo sapiens, UniProt O75676): 98.7%
TLK2 (Homo sapiens, UniProt Q86UE8): 96.2%
AKT2 (Homo sapiens, UniProt P31751): 93.3%
PNCK (Homo sapiens, UniProt Q6P2M8): 90.9%
CDC42BPB (Homo sapiens, UniProt Q9Y5S2): 83.4%
PAK3 (Homo sapiens, UniProt O75914): 96.4%
CAMK4 (Homo sapiens, UniProt Q16566): 98.4%
CLK4 (Homo sapiens, UniProt Q9HAZ1): 62%

Set 3
Target: Transcriptional repressor CTCF (CTCF, Homo sapiens, UniProt P49711, residues 1-727, full length assumed)
Method: protein-binding microarray
Molecule type: double-stranded DNA, one strand shown
Medium: in vitro
Tested at: not given
Setting: k-mer, scored over probes, only values ≥0.25
Reading: higher = stronger binding
Quantity: E-score
Residues (chain): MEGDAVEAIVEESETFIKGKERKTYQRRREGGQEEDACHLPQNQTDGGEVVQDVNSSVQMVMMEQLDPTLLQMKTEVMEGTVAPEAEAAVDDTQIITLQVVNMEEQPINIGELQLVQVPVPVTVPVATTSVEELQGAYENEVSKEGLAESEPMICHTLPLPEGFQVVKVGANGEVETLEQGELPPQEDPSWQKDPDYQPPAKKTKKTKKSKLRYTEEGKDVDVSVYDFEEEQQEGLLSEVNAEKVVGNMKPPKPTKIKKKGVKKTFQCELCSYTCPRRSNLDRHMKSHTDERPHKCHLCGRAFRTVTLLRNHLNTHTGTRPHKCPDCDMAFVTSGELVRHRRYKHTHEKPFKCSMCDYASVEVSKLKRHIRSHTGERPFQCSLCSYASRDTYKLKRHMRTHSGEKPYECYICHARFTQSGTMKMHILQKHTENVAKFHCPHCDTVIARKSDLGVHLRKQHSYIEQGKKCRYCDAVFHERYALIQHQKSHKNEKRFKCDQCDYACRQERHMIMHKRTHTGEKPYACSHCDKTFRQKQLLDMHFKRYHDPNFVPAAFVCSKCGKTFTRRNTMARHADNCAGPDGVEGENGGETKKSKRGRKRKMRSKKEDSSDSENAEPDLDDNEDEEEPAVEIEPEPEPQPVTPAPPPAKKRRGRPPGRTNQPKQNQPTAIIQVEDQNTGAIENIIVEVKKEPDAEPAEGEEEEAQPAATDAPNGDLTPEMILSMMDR
ACCGCTAG: 0.306
GTATGTAA: 0.304
ATATACAT: 0.299
CTGGCGGC: 0.281
TAATACCA: 0.255
CGCTTATA: 0.304
ACTGTTAC: 0.26
TAGGCGCA: 0.266

Set 4
SMILES: O=C1CCc2cc(Nc3cc(OC4CCOCC4)c([N+](=O)[O-])cc3Cl)ccc2N1
Effect on: cell-free assay
Method: competition with immobilised ligand
Tested at: 1 µM
Quantity: remaining binding
Ribosomal protein S6 kinase alpha-4, N-terminal kinase domain (RPS6KA4, Homo sapiens, UniProt O75676): 65%
STK32C (Homo sapiens, UniProt Q86UX6): 83%
DYRK1B (Homo sapiens, UniProt Q9Y463): 74%

A few entries again (set 1):
TTAGGTAGCCTTCTCCTTTAGTGCTAG: 0.35 z-score
TTTGGTTTCGGTTTCGGTTAGTGCTAG: 18.4 z-score
TCATAGATGCCTTTCTCACTGTGCTAG: 0.813 z-score
TTAGCACTGAGACTGGATTAGTGCTAG: -0.275 z-score
TTAGATTCCAGGTTCGATTAGTGCTAG: 1.23 z-score
